{"data": "Experimental data from different studies", "note": "Protocols differ between the studies behind these lines. Numbers after ± are the reported error."}
{"Substance": "Cc1c(-c2nnc(SC/C(=N/O)c3ccccc3)n2-c2ccccc2)nnn1-c1ccc(S(N)(=O)=O)cc1", "test": "Griess", "test system": "phosphate buffer-methanol", "conditions": "100 µM, 1 h, pH 7.4, 37 °C, together with: N-acetylcysteine 0.5 mM", "how to read": "reference: theoretical maximum release", "measurement": "NO released", "value": "1.52%"}
{"Substance": "Cc1c(C(=O)Nc2ccc(N3C[C@@H](C)O[C@@H](C)C3)nc2)cccc1-c1ccc(OC(F)(F)F)cc1", "test": "cell growth, 3H-thymidine uptake", "test system": "freshly isolated resistant medulloblastoma cells, mouse", "conditions": "48 h, ex vivo", "measurement": "IC50", "value": "> 20000 nM"}
{"Substance": "COc1ccc(C2N[C@H](C(=O)O)Cc3c2[nH]c2ccccc32)cc1CN1CCN(c2ccccc2F)CC1 (some centres unmarked)", "test": "glucose-induced calcium signal", "test system": "mouse, isolated pancreatic islets", "conditions": "30 min preincubation, together with: glucose", "measurement": "IC50", "value": "3000 nM"}
{"Substance": "Cc1ccc(NC(=O)c2ccc(CN3CCN(C)CC3)cc2)cc1Nc1nccc(-c2cncc(-c3oncc3C)c2)n1", "test system": "mild-to-moderate Parkinson's disease patients", "conditions": "oral, 100 mg once daily, pre-dose baseline, on anti-Parkinson medication", "how to read": "direction not given", "measurement": "NMSS score", "value": "18.4 ± 16.1"}
{"Substance": "Cc1nc(NC(=O)N2CCC[C@H]2C(N)=O)sc1-c1ccnc(C(C)(C)C(F)(F)F)c1", "test system": "human, HER2-negative metastatic breast cancer", "conditions": "concentration not given, median, monotherapy after nab-paclitaxel stop", "measurement": "time to progression", "value": "15 weeks"}
{"Substance": "insulin aspart", "test": "euglycemic clamp", "test system": "healthy humans", "conditions": "subcutaneous, 0.2 IU/kg, 0 to 8 h, before propensity score matching", "measurement": "glucose infusion AUC", "value": "1460 ± 396 mg/kg"}
{"Substance": "COC(=O)[C@@H](N)CCCNC(N)=N[N+](=O)[O-]", "test": "IFN-γ ELISPOT", "test system": "EL4 tumour-bearing mice, spleen", "conditions": "drinking water, 2 g/L, 13 days, together with: PNT-S peptide pool", "how to read": "reference: untreated", "measurement": "CD8+ T cell response", "value": "~5 fold"}
{"Substance": "CCCOc1ccc(S(=O)(=O)NCCC2CCCN2C)cc1-c1nc2c(CCC)nn(C)c2c(=O)[nH]1 (centres unmarked)", "test": "ramp cycle exercise test", "test system": "human adolescents after Fontan palliation", "conditions": "oral, 87.5 mg once daily, day 5", "measurement": "VO2 at anaerobic threshold", "value": "16.5 ± 4.8 mL/min/kg"}
{"Substance": "SIIVFEKL", "test": "flow cytometry, measured: CD44hi CD8+ T cells", "test system": "peptide, OT-I CD8+ T cells, mouse", "conditions": "1 µg/mL loading, primed 5 days, restimulated 100 ng/mL OVA257, together with: no TGF-β1", "measurement": "triple cytokine producers", "value": "67.5%"}
{"Substance": "CCOC(=O)CSc1nnc(C23CC4CC(CC(C4)C2)C3)n1-c1ccccc1", "test system": "rat carrageenan paw oedema", "conditions": "intraperitoneal, 40 mg/kg, 4 h after carrageenan", "how to read": "reference: vehicle control", "measurement": "paw oedema inhibition", "value": "> 50%"}
{"Substance": "Cc1c2ccccc2c(C)c2c1ccc1ccccc12", "test": "measured: adrenal hemorrhage", "test system": "rat", "conditions": "oral, in oil, against adrenal apoplexy from challenge, together with: challenge 5 mg iv", "measurement": "minimum protective dose", "value": "2 mg"}
{"Substance": "cotadutide", "test": "measured: total daily insulin dose", "test system": "human, type 2 diabetes, CKD, insulin-treated", "conditions": "dose not given, median", "how to read": "reference: baseline", "measurement": "change in insulin dose", "value": "-37%"}
{"Substance": "PACAP", "test": "qRT-PCR, GAPDH-normalised, measured: Somatostatin", "test system": "APP V717I transgenic mouse, 6 months old, brain", "conditions": "intranasal, dose not given, 3 months", "how to read": "reference: vehicle-treated mice", "measurement": "mRNA level", "value": "138 ± 9.7%"}
{"Substance": "SIYNFEKL", "test": "flow cytometry, measured: CD44hi CD8+ T cells", "test system": "peptide, OT-I CD8+ T cells, mouse", "conditions": "dose not given, primed 5 days, restimulated 100 ng/mL OVA257, together with: no TGF-β1", "measurement": "cytokine-negative cells", "value": "12.1%"}
{"Substance": "cilengitide", "test": "measured: phospho-Smad3 Ser423/425", "test system": "Sprague-Dawley rats, TNBS colitis, colonic muscle cells", "conditions": "ip, 18 mg/kg/day, 42 d", "measurement": "Smad3 phosphorylation", "value": "inhibited"}
{"Substance": "CC(C)C[C@H](NC(=O)[C@H](CO)NC(=O)[C@H](CCCNC(=N)N)NC(=O)[C@H](CC(=O)O)NC(=O)[C@H](CCC(=O)O)NC(=O)[C@H](C)NC(=O)[C@@H]1CCCN1C(=O)[C@H](C)NC(=O)[C@H](CCC(=O)O)NC(=O)[C@@H]1CCCN1C(=O)[C@@H]1CCCN1)C(N)=O", "test": "measured: tyrosine hydroxylase", "test system": "rat F344, unilateral 6-OHDA lesion, lesioned SNpc caudal, -5.96 mm from bregma", "conditions": "intranasal, 300 µg daily", "measurement": "TH+ neuron number", "value": "26 ± 7"}
{"Substance": "O=C(/C=C/c1ccc(O)c(O)c1)c1ccc(O)c(O)c1O", "test system": "ethanol", "conditions": "20 µM, 30 min", "measurement": "DPPH scavenging", "value": "> 80%"}
{"Substance": "C[C@H]1CC[C@H](n2c3cnccc3c3cnc(Nc4ccc5c(n4)CCN(C(=O)CO)C5)nc32)CC1", "test": "STAT5 Tyr694 phosphorylation", "test system": "mouse, orthotopic MOLM13-Luc tumour, femur", "conditions": "plasma concentration, model estimate", "measurement": "IC50", "value": "6.08 nM"}
{"Substance": "polymyxin B", "test system": "EYPC vesicles", "conditions": "10 µg/mL, 250 s, pH 7.4, 25 °C", "how to read": "reference: Triton X-100", "measurement": "carboxyfluorescein leakage", "value": "2%"}
{"Substance": "CN(C)C(=O)N[C@H]1CC[C@H](CCN2CCN(c3cccc(Cl)c3Cl)CC2)CC1", "test system": "Sprague-Dawley rat, ouabain-induced mania", "conditions": "ip, 0.5 mg/kg daily, 7 days, squares in 30 min, together with: ouabain icv single", "measurement": "open field activity", "value": "110 ± 19.2 squares crossed"}
{"Substance": "Cc1c(C(=O)NN2CCCCC2)nn(-c2ccc(Cl)cc2Cl)c1-c1ccc(Cl)cc1", "test system": "rat, diet-induced obese, plasma", "conditions": "peripheral, 10 mg/kg per day, 6 days", "measurement": "insulin level", "value": "1.38 ± 0.23 ng/mL"}
{"Substance": "CCCn1c(=O)n(C2CC2)c(=O)c2[nH]c(-c3ccc(N(CC)C(=O)c4cccnc4)nc3)nc21", "test": "hyperinsulinemic-euglycemic clamp", "test system": "KKA diabetic mice", "conditions": "oral, 20 mg/kg four times at 12 h intervals", "how to read": "reference: untreated KKA mice", "measurement": "glucose infusion rate", "value": "increased"}
{"Substance": "C[C@H]1C[C@H]2CSC(N)=N[C@@]2(c2nc(NC(=O)c3ccc(OC(F)F)cn3)cs2)CO1", "test": "measured: CSF sAPPα", "test system": "healthy adults", "conditions": "125 mg once daily, 14 days, day 15", "how to read": "reference: placebo-adjusted baseline", "measurement": "change from baseline", "value": "72.9%"}
{"Substance": "CC1(C)CCC(CN2CCN(c3ccc(C(=O)NS(=O)(=O)c4ccc(NCC5CCOCC5)c([N+](=O)[O-])c4)c(Oc4cnc5[nH]ccc5c4)c3)CC2)=C(c2ccc(Cl)cc2)C1", "test": "cell kill, PI exclusion flow cytometry", "test system": "normal CD3+ T lymphocytes, dog, lymph node", "conditions": "24 h", "measurement": "EC50", "value": "31 ± 24 nM"}
{"Substance": "COc1ccc2c(c1)c(CC(=O)O)c(C)n2C(=O)c1ccc(Cl)cc1", "test": "multiplex bead immunoassay, measured: MCP-1", "test system": "CD-1 mice, serum", "conditions": "ip, 20 mg/kg, three-injection regimen, together with: LPS 3 mg/kg", "measurement": "cytokine level", "value": "1160 ± 664 pg/mL"}
{"Substance": "c1ccc(-c2ncc3cc(-n4ccnc4)ccc3n2)cc1", "test": "Randall-Selitto test", "test system": "rat, capsaicin hyperalgesia", "conditions": "oral, 30 mg/kg, 1 h", "measurement": "paw withdrawal threshold", "value": "239 ± 12 g"}
{"Substance": "Clc1cccc(-c2c[nH]c(-c3ccccc3)n2)c1", "test": "tonic-clonic seizure protection, maximal electroshock seizure test", "test system": "mice", "conditions": "intraperitoneal, 0.25 h", "measurement": "ED50", "value": "~130 mg/kg"}
{"Substance": "neuropeptide Y", "test system": "Sprague Dawley rat, urethane-anaesthetised", "conditions": "intravenous, 5 nmol", "measurement": "bradycardia-tachycardia crossover time", "value": "4.8 ± 1 min"}
{"Substance": "CCc1occc(=O)c1OC(=O)c1ccc(O)c(OC)c1", "test system": "Sprague-Dawley rat, common carotid artery", "conditions": "dose not given, 5 days twice daily, shear-induced thrombosis", "measurement": "thrombus protein content", "value": "10 µg"}
{"Substance": "Cc1cc(C)c(/C=C2\\C(=O)Nc3ccccc32)[nH]1", "test": "MRI", "test system": "human", "conditions": "dose not given, 6.8 months", "measurement": "tumour volume", "value": "65.8 cm³"}
{"Substance": "CC[C@H](C)[C@H](NC(=O)[C@H](CCC(N)=O)NC(=O)[C@H](Cc1c[nH]cn1)NC(=O)[C@H](C)NC(=O)[C@H](CC(C)C)NC(=O)[C@H](CCCCN)NC(=O)[C@H](CCC(N)=O)NC(=O)[C@@H](NC(=O)[C@@H](NC(=O)[C@@H]1CSSC[C@H](NC(=O)CNC(=O)[C@H](Cc2ccccc2)NC(=O)[C@H](CO)NC(=O)[C@H](CCCNC(=N)N)NC(=O)[C@H](CC(C)C)NC(=O)CNC(=O)[C@H](CCC(N)=O)NC(=O)[C@H](Cc2ccccc2)NC(=O)[C@H](CC(N)=O)NC(=O)[C@H](CC(N)=O)NC(=O)[C@H](CCSC)NC(=O)[C@H](CO)NC(=O)[C@H](CCC(N)=O)NC(=O)[C@H](CCCNC(=N)N)NC(=O)[C@@H](N)Cc2ccc(O)cc2)C(=O)N[C@@H](CCCNC(=N)N)C(=O)N[C@@H](Cc2ccccc2)C(=O)NCC(=O)N[C@@H]([C@@H](C)O)C(=O)N1)[C@@H](C)O)C(C)C)C(=O)N[C@@H](Cc1ccc(O)cc1)C(=O)N[C@@H](CCC(N)=O)C(=O)N[C@@H](Cc1ccccc1)C(=O)N[C@H](C(=O)N[C@@H](CC(=O)O)C(=O)N[C@@H](CCCCN)C(=O)N[C@@H](CC(=O)O)C(=O)N[C@@H](CCCCN)C(=O)N[C@@H](CC(=O)O)C(=O)N[C@@H](CC(N)=O)C(=O)N[C@H](C(=O)N[C@@H](C)C(=O)N1CCC[C@H]1C(=O)N[C@@H](CCCNC(=N)N)C(=O)N[C@@H](CO)C(=O)N[C@@H](CCCCN)C(=O)N[C@H](C(=O)N[C@@H](CO)C(=O)N1CCC[C@H]1C(=O)N[C@@H](CCC(N)=O)C(=O)NCC(=O)N[C@@H](Cc1ccc(O)cc1)C(N)=O)[C@@H](C)CC)C(C)C)[C@@H](C)O", "test system": "patients, biologic-resistant Crohn's disease", "conditions": "intravenous infusion, 10 ng/kg/min, 4 weeks, unit not given, together with: biologic", "how to read": "reference: baseline", "measurement": "change in CDAI", "value": "-77 ± 90"}
{"Substance": "insulin aspart", "test": "euglycemic clamp", "test system": "human, type 1 diabetes", "conditions": "sc, 9 × 2 IU dispersed boluses", "measurement": "time to 10% of maximum GIR", "value": "23 ± 6 min"}
{"Substance": "COc1cc(/C=C/C(O)=C/C(=O)/C=C/c2ccc(OCc3ccccc3)c(OC)c2)ccc1O", "test": "IL-6 secretion, ELISA", "test system": "peritoneal macrophages, C57BL/6 mice", "conditions": "together with: LPS 10 ng/mL", "measurement": "IC50", "value": "1810 ± 1310 nM"}
{"Substance": "C[C@H](NC(=O)CCc1nc2cccnc2n1Cc1ccc(OC(F)(F)F)cc1)c1ccc(Cl)cc1", "test system": "C57BL/6 mouse, bleomycin fibrosis", "conditions": "oral, 10 mg/kg twice daily, 21 days, prophylactic", "measurement": "modified Ashcroft score", "value": "decreased"}
{"Substance": "CS/C(S)=N/CCCC[S+](C)[O-] (racemic)", "test": "RT-PCR, measured: Gstp1", "test system": "rat, liver", "conditions": "oral gavage, 200 mg/kg, 96 h, dosed for four days", "how to read": "reference: vehicle", "measurement": "mRNA fold change", "value": 1.61}
{"note": "A few entries again:"}
{"Substance": "CC(C)C[C@H](NC(=O)[C@H](CO)NC(=O)[C@H](CCCNC(=N)N)NC(=O)[C@H](CC(=O)O)NC(=O)[C@H](CCC(=O)O)NC(=O)[C@H](C)NC(=O)[C@@H]1CCCN1C(=O)[C@H](C)NC(=O)[C@H](CCC(=O)O)NC(=O)[C@@H]1CCCN1C(=O)[C@@H]1CCCN1)C(N)=O", "test": "measured: tyrosine hydroxylase", "test system": "rat F344, unilateral 6-OHDA lesion, lesioned SNpc caudal, -5.96 mm from bregma", "conditions": "intranasal, 300 µg daily", "measurement": "TH+ neuron number", "value": "26 ± 7"}
{"Substance": "O=C(/C=C/c1ccc(O)c(O)c1)c1ccc(O)c(O)c1O", "test system": "ethanol", "conditions": "20 µM, 30 min", "measurement": "DPPH scavenging", "value": "> 80%"}
{"Substance": "C[C@H]1CC[C@H](n2c3cnccc3c3cnc(Nc4ccc5c(n4)CCN(C(=O)CO)C5)nc32)CC1", "test": "STAT5 Tyr694 phosphorylation", "test system": "mouse, orthotopic MOLM13-Luc tumour, femur", "conditions": "plasma concentration, model estimate", "measurement": "IC50", "value": "6.08 nM"}
{"Substance": "polymyxin B", "test system": "EYPC vesicles", "conditions": "10 µg/mL, 250 s, pH 7.4, 25 °C", "how to read": "reference: Triton X-100", "measurement": "carboxyfluorescein leakage", "value": "2%"}
